Measured values gathered from unrelated publications.
Each numbered part is a random draw from the data of one study; scales do not carry over between parts. “And” joins repeats or separate records; there may be more than shown.
Sequence of UniProt P52333 (whole entry, looked up): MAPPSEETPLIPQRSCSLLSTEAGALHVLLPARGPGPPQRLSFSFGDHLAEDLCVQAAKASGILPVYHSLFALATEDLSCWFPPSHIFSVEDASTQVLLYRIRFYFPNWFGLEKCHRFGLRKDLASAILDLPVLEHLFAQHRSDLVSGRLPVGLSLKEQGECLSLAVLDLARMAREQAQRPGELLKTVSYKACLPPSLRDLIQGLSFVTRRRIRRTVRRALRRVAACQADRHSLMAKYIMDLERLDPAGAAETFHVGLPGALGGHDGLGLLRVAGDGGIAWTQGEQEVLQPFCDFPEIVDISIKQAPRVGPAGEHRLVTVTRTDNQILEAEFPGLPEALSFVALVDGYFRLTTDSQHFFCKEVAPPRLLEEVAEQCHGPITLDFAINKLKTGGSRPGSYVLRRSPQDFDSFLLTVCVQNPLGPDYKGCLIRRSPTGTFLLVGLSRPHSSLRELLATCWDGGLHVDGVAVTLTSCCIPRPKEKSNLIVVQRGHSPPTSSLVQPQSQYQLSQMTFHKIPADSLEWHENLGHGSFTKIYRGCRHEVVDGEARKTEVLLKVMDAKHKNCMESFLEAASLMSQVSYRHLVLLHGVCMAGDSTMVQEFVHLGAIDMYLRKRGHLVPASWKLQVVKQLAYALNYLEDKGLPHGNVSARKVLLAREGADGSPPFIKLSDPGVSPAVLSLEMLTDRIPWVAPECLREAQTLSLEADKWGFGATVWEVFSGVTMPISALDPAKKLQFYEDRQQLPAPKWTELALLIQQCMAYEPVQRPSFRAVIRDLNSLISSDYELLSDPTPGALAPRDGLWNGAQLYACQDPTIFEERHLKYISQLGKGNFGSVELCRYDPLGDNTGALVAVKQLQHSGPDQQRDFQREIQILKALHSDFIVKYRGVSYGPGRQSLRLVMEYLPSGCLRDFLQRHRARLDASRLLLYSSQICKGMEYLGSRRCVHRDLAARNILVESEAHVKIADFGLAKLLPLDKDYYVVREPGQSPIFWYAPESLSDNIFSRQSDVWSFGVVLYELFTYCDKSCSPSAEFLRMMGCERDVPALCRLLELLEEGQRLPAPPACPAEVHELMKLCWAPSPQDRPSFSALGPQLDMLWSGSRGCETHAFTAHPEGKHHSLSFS
Sequence of UniProt P22607 (whole entry, unmodified, looked up): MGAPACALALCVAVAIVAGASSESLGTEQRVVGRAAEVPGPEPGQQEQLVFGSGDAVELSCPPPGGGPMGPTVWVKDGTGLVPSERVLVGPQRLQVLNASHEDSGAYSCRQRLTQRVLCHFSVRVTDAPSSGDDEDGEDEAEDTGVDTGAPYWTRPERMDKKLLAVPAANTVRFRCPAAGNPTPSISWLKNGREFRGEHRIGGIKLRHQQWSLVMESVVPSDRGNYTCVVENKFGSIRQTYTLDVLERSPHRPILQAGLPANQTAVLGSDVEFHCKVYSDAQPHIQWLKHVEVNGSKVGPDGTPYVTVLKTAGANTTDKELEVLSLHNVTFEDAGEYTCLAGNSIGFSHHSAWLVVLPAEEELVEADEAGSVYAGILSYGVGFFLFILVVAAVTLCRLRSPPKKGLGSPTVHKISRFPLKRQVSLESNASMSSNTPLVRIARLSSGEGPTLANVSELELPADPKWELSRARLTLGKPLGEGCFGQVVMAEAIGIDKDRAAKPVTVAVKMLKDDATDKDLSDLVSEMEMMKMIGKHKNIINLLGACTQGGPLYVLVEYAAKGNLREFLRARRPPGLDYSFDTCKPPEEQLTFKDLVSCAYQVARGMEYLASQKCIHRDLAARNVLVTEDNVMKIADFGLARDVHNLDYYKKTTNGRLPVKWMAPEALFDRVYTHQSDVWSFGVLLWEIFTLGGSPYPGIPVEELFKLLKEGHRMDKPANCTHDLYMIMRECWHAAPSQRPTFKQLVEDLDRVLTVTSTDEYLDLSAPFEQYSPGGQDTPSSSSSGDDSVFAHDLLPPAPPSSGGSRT
Sequence of UniProt P51817 (whole entry, looked up): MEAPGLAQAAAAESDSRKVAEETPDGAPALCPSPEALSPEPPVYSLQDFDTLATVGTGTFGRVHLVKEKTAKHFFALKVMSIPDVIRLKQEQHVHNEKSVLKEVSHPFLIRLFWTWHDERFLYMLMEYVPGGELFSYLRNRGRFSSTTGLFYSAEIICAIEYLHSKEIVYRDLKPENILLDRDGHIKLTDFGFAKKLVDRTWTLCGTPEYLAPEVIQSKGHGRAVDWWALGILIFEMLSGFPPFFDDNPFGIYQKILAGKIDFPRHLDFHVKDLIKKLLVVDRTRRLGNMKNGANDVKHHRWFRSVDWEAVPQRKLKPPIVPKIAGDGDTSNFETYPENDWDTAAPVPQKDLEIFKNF
Sequence of UniProt Q8TBX8 (whole entry, looked up): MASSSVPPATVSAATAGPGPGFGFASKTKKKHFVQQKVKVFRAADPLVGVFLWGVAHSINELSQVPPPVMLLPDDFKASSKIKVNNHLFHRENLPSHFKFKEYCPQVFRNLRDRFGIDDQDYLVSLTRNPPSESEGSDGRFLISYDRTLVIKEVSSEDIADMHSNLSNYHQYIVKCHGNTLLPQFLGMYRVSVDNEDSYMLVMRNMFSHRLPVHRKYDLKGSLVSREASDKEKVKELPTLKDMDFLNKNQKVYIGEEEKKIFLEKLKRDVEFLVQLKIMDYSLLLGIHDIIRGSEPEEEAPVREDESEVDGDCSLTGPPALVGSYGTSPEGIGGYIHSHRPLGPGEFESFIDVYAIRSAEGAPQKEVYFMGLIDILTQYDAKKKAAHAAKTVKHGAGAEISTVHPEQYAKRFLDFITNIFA
Sequence of UniProt O75716 (whole entry, looked up): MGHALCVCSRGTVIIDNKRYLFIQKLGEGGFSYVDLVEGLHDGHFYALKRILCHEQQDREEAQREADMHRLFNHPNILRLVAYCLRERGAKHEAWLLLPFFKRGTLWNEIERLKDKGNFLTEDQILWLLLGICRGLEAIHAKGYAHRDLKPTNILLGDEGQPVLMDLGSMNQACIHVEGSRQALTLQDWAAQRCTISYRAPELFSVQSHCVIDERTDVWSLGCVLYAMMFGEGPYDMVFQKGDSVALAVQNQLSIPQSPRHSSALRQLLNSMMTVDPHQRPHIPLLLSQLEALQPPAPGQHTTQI
Sequence of UniProt P07333 (whole entry, looked up): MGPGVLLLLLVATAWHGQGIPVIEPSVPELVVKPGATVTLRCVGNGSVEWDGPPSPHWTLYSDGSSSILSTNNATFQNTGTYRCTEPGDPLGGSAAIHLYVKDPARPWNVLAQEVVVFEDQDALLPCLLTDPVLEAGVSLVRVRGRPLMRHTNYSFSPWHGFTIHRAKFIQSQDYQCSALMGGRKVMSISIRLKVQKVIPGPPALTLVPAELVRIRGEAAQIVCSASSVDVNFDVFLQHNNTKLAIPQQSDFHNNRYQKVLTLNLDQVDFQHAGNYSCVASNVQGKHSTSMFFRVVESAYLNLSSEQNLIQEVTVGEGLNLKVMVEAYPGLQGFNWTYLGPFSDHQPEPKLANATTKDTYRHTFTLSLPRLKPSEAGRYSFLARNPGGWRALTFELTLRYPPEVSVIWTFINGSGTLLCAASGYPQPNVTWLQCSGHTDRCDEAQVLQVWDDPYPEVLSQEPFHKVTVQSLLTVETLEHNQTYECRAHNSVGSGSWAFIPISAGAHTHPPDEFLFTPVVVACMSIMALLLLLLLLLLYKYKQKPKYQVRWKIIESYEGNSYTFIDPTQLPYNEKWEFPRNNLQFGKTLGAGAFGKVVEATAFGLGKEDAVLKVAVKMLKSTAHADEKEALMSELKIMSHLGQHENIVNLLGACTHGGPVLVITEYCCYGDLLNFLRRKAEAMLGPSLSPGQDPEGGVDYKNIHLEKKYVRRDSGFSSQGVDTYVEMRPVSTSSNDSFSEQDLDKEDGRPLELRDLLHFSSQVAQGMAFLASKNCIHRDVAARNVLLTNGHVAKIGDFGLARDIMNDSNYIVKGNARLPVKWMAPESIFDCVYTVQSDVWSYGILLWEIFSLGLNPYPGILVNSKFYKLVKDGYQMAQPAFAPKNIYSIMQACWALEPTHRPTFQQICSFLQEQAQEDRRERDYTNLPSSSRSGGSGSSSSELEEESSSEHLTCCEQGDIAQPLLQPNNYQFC
Sequence of UniProt P27361 (whole entry, looked up): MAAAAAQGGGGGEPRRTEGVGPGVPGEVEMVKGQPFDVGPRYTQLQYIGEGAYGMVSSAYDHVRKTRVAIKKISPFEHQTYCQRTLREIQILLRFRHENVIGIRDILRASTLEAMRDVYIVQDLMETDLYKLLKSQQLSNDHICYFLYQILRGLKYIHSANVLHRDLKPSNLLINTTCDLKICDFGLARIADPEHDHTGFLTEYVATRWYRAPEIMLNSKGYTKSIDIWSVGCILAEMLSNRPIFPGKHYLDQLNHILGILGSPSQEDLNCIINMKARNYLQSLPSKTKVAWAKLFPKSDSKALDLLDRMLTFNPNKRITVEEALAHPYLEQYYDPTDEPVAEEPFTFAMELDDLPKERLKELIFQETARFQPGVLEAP

Block 1 — host: mouse, EL4 tumour; route: subcutaneous; quantity: tumour volume
Compound: CC(=O)N[C@@H](Cc1c[nH]c2ccccc12)C(=O)N[C@@H](CCC(=O)C=[N+]=[N-])C(=O)OC(C)C
0.1 mg/kg, day 16: 887 mm3 and 735 mm3 and 581 mm3 and 655 mm3 and 2230 mm3 and 121 mm3
1 mg/kg, day 16: 0 mm3 and 69.6 mm3
1 mg/kg, day 15: 0 mm3 and 138 mm3 and 106 mm3
1 mg/kg, day 14: 0 mm3 and 139 mm3 and 90.9 mm3 and 387 mm3

Block 2 — organism: Sarcocystis neurona; effect on: parasite growth; concentration: 10 µM; time: 96 h; setting: second screen; relative to: untreated; quantity: log2 fold change
C[C@]12C[C@H](O)[C@H]3[C@@H](CCC4=CC(=O)CC[C@@]43C)[C@@H]1CC[C@@H]2C(=O)CO: 0.08
O=C(NCCO[N+](=O)[O-])c1cccnc1: 0.5
COc1ccc(C2CNC(=O)C2)cc1OC1CCCC1 (stereo not shown): 0.31
COc1ccc(/C=C/C(=O)Nc2ccccc2C(=O)O)cc1OC: -0.56
CNNCc1ccc(C(=O)NC(C)C)cc1: 0.2
CCOC(=O)c1ncn2c1CN(C)C(=O)c1cc(F)ccc1-2: 0.05

Block 3 — concentration: 1 µM; quantity: remaining binding
Structure (SMILES): CN1CCN(C(=O)c2ccc(NC(=O)Nc3ccc(N(C)c4ccnc(Nc5ccc(CS(C)(=O)=O)cc5)n4)cc3)cc2)CC1
Mitogen-activated protein kinase 3 (MAPK3, Homo sapiens, UniProt P27361); binding: 100%
Serine/threonine-protein kinase 16 (STK16, Homo sapiens, UniProt O75716); binding: 15%
Fibroblast growth factor receptor 3 (FGFR3, Homo sapiens, UniProt P22607, G697C); binding: 100%
Macrophage colony-stimulating factor 1 receptor, autoinhibited (CSF1R, Homo sapiens, UniProt P07333); binding: 8.8%
Tyrosine-protein kinase JAK3, JH1 (JAK3, Homo sapiens, UniProt P52333); cell-free assay, competition with immobilised ligand: 5.4%

Block 4 — effect on: binding; mode: competitor; technique: NanoBRET; cell line: HEK293; quantity: normalized BRET
SMILES: Cn1cnc(Cn2ccc3ccc(CNCc4[nH]c5ccccc5c4[C@H]4NC(=O)c5ccc(O)cc54)cc32)c1
KRAS G12C: GTPase KRas (KRAS, Homo sapiens, UniProt P01116, G12C)
GTPase KRas (KRAS, Homo sapiens, UniProt P01116); 339 pM: 79.6% and 72.6% and 94.7% and 89.8%
KRAS G12C; 27.4 nM, 4 h; relative to: vehicle and 20 µM BI compound: 98% and 102% and 99.5% and 95.6%
KRAS G12C; 20 µM, 2 h; relative to: vehicle and 20 µM BI compound: 1.31% and -0.59% and 0.02% and -0.73%

Block 5 — host: human; matrix: microsomes or S9; concentration: 2 µM; time: 0.5 h; quantity: remaining compound
COc1ccccc1CNC(=O)C1(C)Cc2ccccc2C(=O)N1c1ccc(Cl)cc1 (stereo not shown): 1.86%
CCN1CCN(c2nc(-c3ccc(C)cc3)cc3cc(C)ccc23)CC1: 29.1%
Cc1noc(C)c1Cc1c(C(=O)N2CCC(n3c(C)cnc3C3CCC3)C2)noc1C (stereo not shown): 5.82%
COc1ccc(-c2cc(CNC(=O)c3ccc(=O)[nH]n3)no2)cc1OC: 66%
O=C(CN1CCOCC1)N1CCC(c2nc(-c3ccccc3)no2)C1 (stereo not shown): 99.1%

Block 6 — effect on: enzyme activity; mode: inhibitor; concentration: 0.5 µM; relative to: control; quantity: remaining activity
Target: Dual specificity protein kinase CLK4 (CLK4, Homo sapiens, UniProt Q9HAZ1)
Sequence of UniProt Q9HAZ1 (whole entry, looked up): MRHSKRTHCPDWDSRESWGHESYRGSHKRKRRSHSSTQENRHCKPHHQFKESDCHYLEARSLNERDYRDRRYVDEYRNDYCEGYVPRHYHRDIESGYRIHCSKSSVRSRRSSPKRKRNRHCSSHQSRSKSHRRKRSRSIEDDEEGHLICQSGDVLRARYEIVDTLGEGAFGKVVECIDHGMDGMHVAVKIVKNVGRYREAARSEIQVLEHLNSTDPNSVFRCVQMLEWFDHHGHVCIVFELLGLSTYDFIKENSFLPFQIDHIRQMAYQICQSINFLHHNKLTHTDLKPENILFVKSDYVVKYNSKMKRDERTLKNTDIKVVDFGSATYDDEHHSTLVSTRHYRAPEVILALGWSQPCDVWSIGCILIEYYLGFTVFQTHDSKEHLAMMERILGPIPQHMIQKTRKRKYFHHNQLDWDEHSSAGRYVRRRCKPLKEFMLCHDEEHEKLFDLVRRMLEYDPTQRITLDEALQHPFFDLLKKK
CN(C)c1ccc(C=C2C(=O)Nc3ccccc32)cc1: 94.1%
COc1ccc(OC)c2c(=S)c3ccccc3[nH]c12: 104%
COc1ccc(CNC(=O)Nc2ncc([N+](=O)[O-])s2)cc1: 92.8%
Cc1nc(-c2ccccc2)c(-c2ccncc2)o1: 121%
Cc1ccc(Nc2nccc(N(C)c3ccc4c(C)n(C)nc4c3)n2)cc1S(N)(=O)=O: 91.7%
Cn1c2ccccc2c2c3c(c4c5ccccc5n(CCC#N)c4c21)CNC3=O: 66.2%
Nc1ncnc2n[nH]c(Nc3ccc(F)cc3)c12: 88.7%
N#CC(C#N)=C(N)/C(C#N)=C/c1ccc(O)cc1: 101%
O=C(O)c1ccc2c3c1cccc3c(=O)n1c3ccccc3nc21: 82.8%
CC(C)[C@H](CO)Nc1nc(Nc2cc(N)cc(Cl)c2)c2ncn(C(C)C)c2n1: 16.5%
C#Cc1cccc(Nc2ncnc3cc(OCCOC)c(OCCOC)cc23)c1: 101%
O=C(Nc1cccc(Nc2cc(Nc3cccc(C(F)(F)F)c3)ncn2)c1)C1CC1: 97.3%
OCC(O)CCON=C1C(c2c(O)[nH]c3ccccc23)=Nc2ccccc21 (stereo not shown): 6.19%
COc1ccc(C(=O)Nc2sc3c(c2C(N)=O)CCCC3)cc1OC: 86.8%
COc1cc2ncnc(Nc3ccc(Oc4ccccc4)cc3)c2cc1OC: 122%
COc1cc2nccc(Oc3ccc(NC(=S)NC(=O)c4ccccc4C)cc3)c2cc1OC: 87.8%
O=S(=O)(c1cccc2cnccc12)N1CCCNCC1: 97.1%
NCCNc1ncc(C(N)=O)c(Nc2cccc(C(F)(F)F)c2)n1: 101%
O=c1c2ccccc2[nH]c(=S)n1CCN1CCC(=C(c2ccc(F)cc2)c2ccc(F)cc2)CC1: 103%
Nc1[nH]nc2nc3ccccc3nc12: 86.9%
COc1cc2ncnc(Nc3ccc(F)c(Cl)c3)c2cc1OCCCN1CCOCC1: 107%
CCOC(=O)c1c(C)[nH]c(/C=C2\C(=O)Nc3ccccc32)c1C: 94.3%
CO[C@H]1C[C@@H]2CC[C@@H](C)[C@@](O)(O2)C(=O)C(=O)N2CCCC[C@H]2C(=O)O[C@H]([C@H](C)C[C@@H]2CC[C@@H](O)[C@H](OC)C2)CC(=O)[C@H](C)/C=C(\C)[C@@H](O)[C@@H](OC)C(=O)[C@H](C)C[C@H](C)/C=C/C=C/C=C/1C: 116%
O=C1NC(=O)C(c2cn(CCCn3ccnc3)c3ccccc23)=C1Nc1ccccc1: 38.9%
O=C1NC(=O)C(c2cn(CCCO)c3ncccc23)=C1c1cnccn1: 100%

Block 7 — effect on: cell-free assay; technique: competition with immobilised ligand; concentration: 1 µM; quantity: remaining binding
SMILES: CC(=O)C1=C(C)N(c2cccc(C(F)(F)F)c2)C(=O)N[C@@H]1c1ccc(C#N)nc1
Epidermal growth factor receptor (EGFR, Homo sapiens, UniProt P00533, del747-752/P753S): 80.3%
Cyclin-dependent kinase-like 3 (CDKL3, Homo sapiens, UniProt Q8IVW4): 98.5%
Phosphatidylinositol 5-phosphate 4-kinase type-2 gamma (PIP4K2C, Homo sapiens, UniProt Q8TBX8): 80.7%
cAMP-dependent protein kinase catalytic subunit PRKX (PRKX, Homo sapiens, UniProt P51817): 100%

For quick reference, copied from above (block 6):
Cc1nc(-c2ccccc2)c(-c2ccncc2)o1: 121%
Cc1ccc(Nc2nccc(N(C)c3ccc4c(C)n(C)nc4c3)n2)cc1S(N)(=O)=O: 91.7%
Cn1c2ccccc2c2c3c(c4c5ccccc5n(CCC#N)c4c21)CNC3=O: 66.2%
Nc1ncnc2n[nH]c(Nc3ccc(F)cc3)c12: 88.7%
